Results collected from several papers.
Compare with care: the assays were run in different laboratories. ± marks the error that the study gave.

CC(C)N(N=O)C(C)C — revertant colonies per plate (Salmonella typhimurium; mutagenicity, Ames plate incorporation; TA1537; 1500 µg/plate, without S9, methanol): 17.3 ± 4
N#C[C@@]1(n2ccc(N)nc2=O)O[C@H](CO)[C@@H](O)[C@H]1O — viability (Salmonella typhimurium; TA1537; 10 µM, without S9): 98%
CCC(C)N(C)C(=O)c1cc2ccccc2c(-c2ccccc2Cl)n1 (stereo not drawn) — maximum inhibition (human coronavirus OC43; virus-induced cell killing; MRC-5; screen): 13.8%
CN(N=O)c1ccc(F)cc1 — revertant colonies per plate (Salmonella typhimurium; mutagenicity, Ames plate incorporation; TA1537; 50 µg/plate, 3 d, without S9, methanol): 10.7 ± 4
COc1cccc(-c2n[nH]c(SCc3ccccn3)n2)c1OC — revertant colonies per plate (Salmonella typhimurium; Ames test, preincubation; TA100; 2.0 mg/plate, without S9): 117
OC(CCN1CC=C(c2ccc(F)cc2)CC1)c1ccc(F)c2ccccc12 (stereo not drawn) — survival (Salmonella typhimurium; SOS/umu test; TA1535/pSK1002; 0.001 mg/mL, 4 h, with S9, lower range): 123%
CC(=O)N1CCC(C(=O)N2CCN3C(=O)c4cc(-c5ccccc5)ccc4NC(=O)C3C2)CC1 (stereo not drawn) — fold increase in revertants (Salmonella typhimurium; TA1537; 158 µg/plate, with: rat liver S9; relative to: vehicle): 1.2
O=[N+]([O-])c1ccc(NC2CCNCC2)c(C(F)(F)F)c1 — umu induction factor (Salmonella typhimurium; SOS response, SOS/umu test; TA1535/pSK1002; 0.001 mg/mL, 4 h, without S9 activation): 0.7
Cc1cc(C(=O)NC(C)(C)COc2cccc3c2C(N)=NS(=O)(=O)N3)cc(C)n1 — revertant ratio (Salmonella typhimurium; Ames test, initial; TA1535; 1.50 µg/plate; relative to: solvent control): 1.3
C/C(=C\C(=O)Nc1ccccc1C(=O)O)c1ccc2ccccc2c1 — maximum inhibition (human coronavirus OC43; virus-induced cell killing; MRC-5; maximum over 10 doses): 0%
CNC(=O)c1c(N(C)N=O)ncn1C — revertant colonies per plate (Salmonella typhimurium; plate incorporation; TA100, water; 500 µg/plate, without S9): 194 ± 26
O=[N+]([O-])c1ccc(N2CCN(CCC(O)c3ccc(F)cc3)CC2)c(C(F)(F)F)c1 (stereo not drawn) — induction factor (Salmonella typhimurium; genotoxicity, SOS/umu test; TA1535/pSK1002; 0.016 mg/mL, 4 h, without S9, lower range): 0.9
